{"data": "Earlier results, collected from citations in different studies", "note": "Numbered parts are unrelated; values within a part may stem from several laboratories."}
{"data": "Sample 1", "Compound": "CN(C)CC/C=C1/c2ccccc2Sc2ccc(Cl)cc21", "cell line": "MCF7", "technique": "microarray", "concentration": "concentration not given", "relative to": "DMSO"}
{"test": "refers to: TRIB1 mRNA", "log2 fold change": 2.45}
{"test": "refers to: TMEM41B mRNA", "log2 fold change": 1.62}
{"test": "refers to: VEZF1 mRNA", "log2 fold change": 1.33}
{"test": "refers to: ZNF165 mRNA", "log2 fold change": 1.86}
{"data": "Sample 2", "organism": "Toxoplasma gondii", "read-out": "parasite growth", "concentration": "concentration not given", "setting": "published screen"}
{"SMILES": "CC1(C)C[C@@H]1C(=O)N/C(=C\\CCCCSC[C@H](N)C(=O)O)C(=O)[O-].[Na+]", "activity class": "inactive"}
{"SMILES": "CC(C)[N+]1(C)[C@@H]2CC[C@H]1C[C@@H](OC(=O)C(CO)c1ccccc1)C2 (stereo partly drawn)", "activity class": "inactive"}
{"SMILES": "CN(CCCN1c2ccccc2CCc2ccccc21)CC(=O)c1ccc(Cl)cc1", "activity class": "inactive"}
{"SMILES": "CCOc1cc(CC(=O)N[C@@H](CC(C)C)c2ccccc2N2CCCCC2)ccc1C(=O)O", "activity class": "inactive"}
{"SMILES": "Fc1ccc([C@@H]2CCNC[C@H]2COc2ccc3c(c2)OCO3)cc1.O=C(O)/C=C\\C(=O)O", "activity class": "inactive"}
{"data": "Mixed results"}
{"Structure (SMILES)": "CCOc1ccc(S(=O)(=O)Nc2ccc(Cl)cc2C#Cc2cnc(C(=O)O)cc2OC)c2ncccc12", "tested on": "human HTR6", "measurement": "IC50", "value": "4.6 µM"}
{"Structure (SMILES)": "COc1cc2c(Nc3ccc(Cl)c(Cl)c3F)ncnc2cc1OC[C@@H]1C[C@@H]2CN(C)C[C@@H]2C1", "system": "mouse, orthotopic GL261 glioma", "setting": "dose not given", "measurement": "increase in median survival", "value": "20%"}
{"Structure (SMILES)": "CCC(=O)N[C@@H]1CC[C@H](C(=O)N(C)c2ccc(-c3nc4ccccc4o3)cc2)C1", "tested on": "FASN", "test": "biochemical activity", "measurement": "IC50", "value": "> 3 µM"}
{"Structure (SMILES)": "C#Cc1cccc(Nc2ncnc3cc(OCCOC)c(OCCOC)cc23)c1", "system": "plasma", "measurement": "fraction unbound", "value": 0.045}
{"Structure (SMILES)": "O=C(Cc1ccccc1)Nc1nnc(N2C[C@H]3C[C@@H]2CN3c2cccnn2)s1", "tested on": "GLS2", "test": "enzyme activity", "measurement": "IC50", "value": "> 30 µM"}
{"Structure (SMILES)": "COc1ccc2cc(OCC3(C(=O)O)CN(C(=O)c4ccc(F)cc4)C3)ccc2c1", "tested on": "PDE3", "test": "Cerep profiling", "measurement": "IC50", "value": "3.5 µM"}
{"note": "For quick reference, copied from above (mixed results):"}
{"Structure (SMILES)": "COc1cc2c(Nc3ccc(Cl)c(Cl)c3F)ncnc2cc1OC[C@@H]1C[C@@H]2CN(C)C[C@@H]2C1", "system": "mouse, orthotopic GL261 glioma", "setting": "dose not given", "measurement": "increase in median survival", "value": "20%"}
